Results collected from several papers.
Compare with care: the assays were run in different laboratories. Several values in a cell are separate wells, animals, samples, runs or records.
MAPK14: Mitogen-activated protein kinase 14 (MAPK14, Homo sapiens, UniProt Q16539)
UniProt Q16539, sequence (whole entry, unmodified, looked up): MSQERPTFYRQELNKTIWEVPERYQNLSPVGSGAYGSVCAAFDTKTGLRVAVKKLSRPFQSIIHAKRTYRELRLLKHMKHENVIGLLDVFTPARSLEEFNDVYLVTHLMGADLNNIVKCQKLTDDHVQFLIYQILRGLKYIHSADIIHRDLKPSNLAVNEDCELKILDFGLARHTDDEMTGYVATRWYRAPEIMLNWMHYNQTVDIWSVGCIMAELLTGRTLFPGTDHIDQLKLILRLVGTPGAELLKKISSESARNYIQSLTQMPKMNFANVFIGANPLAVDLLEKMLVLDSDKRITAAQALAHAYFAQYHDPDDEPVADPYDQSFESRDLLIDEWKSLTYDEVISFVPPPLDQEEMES

| Structure (SMILES) | target | test | system | conditions | how to read | quantity | result |
| --- | --- | --- | --- | --- | --- | --- | --- |
| COc1cc(Nc2nc(C)cc(-c3cnn4nc(OC)ccc34)n2)cc(C(F)(F)F)c1 | MAPK14 | KINOMEscan |  | 1 µM, p38-alpha | reference: DMSO | remaining binding | 87% |
| CS(=O)(=O)Nc1cccc(-c2csc3cnc(Nc4ccc(N5CCN(CCCCCOc6cccc7c6C(=O)N(C6CCC(=O)NC6=O)C7=O)CC5)cc4)nc23)c1 (stereo not shown) | MAPK14 | kinase probe labelling, binder, KiNativ ATP-acylphosphate LC-MS | MOLT-4 live cells | 1 µM |  | inhibition | -14.3% |
| COC(=O)[C@@]1(Cc2ccccc2)C=C(C(=O)OC(C)(C)C)C(=O)CC1 | Mitogen-activated protein kinase 14 (MAPK14, Homo sapiens, UniProt Q16539, C119V) | peptide binding, fluorescence polarization |  | 1000 µM |  | fraction bound | 0.00215 |
| CN1CCN(Cc2ccc(NC(=O)c3cccc(C#Cc4cnc(N)c5ncccc45)c3)cc2C(F)(F)F)CC1 | MAPK14 | cell-free assay, competition with immobilised ligand |  | 50 nM |  | remaining binding | 33% |
| c1ccc2c(Nc3cc(C4CCC4)[nH]n3)nc(Nc3ccc4nc[nH]c4c3)nc2c1 | MAPK14 | enzyme activity, inhibitor |  | 0.25 µM |  | remaining activity | 98% |
| Cc1cccc(-c2ccc3nc(NC(=O)C4CCCO4)nn3c2)c1 (stereo not shown) | MAPK14 | enzyme activity, Dundee kinase panel |  | 10 µM |  | remaining activity | 104% |
| CNS(=O)(=O)Nc1nccc(Cc2c(C)c3ccc(Oc4ncccc4F)cc3oc2=O)c1F | MAPK14 | binding, competition with immobilised ligand |  | 10 µM |  | remaining binding | 69% |
| C=CC(=O)N1CCc2ccc(-n3c(=O)ccc4cnc5ccc(-c6cnn(C)c6)cc5c43)cc21 | MAPK14 | KINOMEscan |  | 1 µM | reference: DMSO control | remaining binding | 100% |
| COc1c(OCCCN2CCOCC2)ccc2c1N=C(NC(=O)c1cnc(N)nc1)N1CCN=C21 | MAPK14 | kinase activity, inhibitor |  | 1 µM | reference: untreated control | remaining activity | 130% |
| CC(C)=CC1OC(C)(C)C2C=C3C(=O)C(Cl)=CC(O)C3C3C(O)C4OC4C(=O)C132 (stereo not shown) | MAPK14 | cell-free assay, competition with immobilised ligand |  | 10 µM |  | remaining binding | 93% |
| CCn1cc(C(=O)O)c(=O)c2c(N)c(F)c(NC3CCCCC3)cc21 | MAPK14 | kinase activity |  | 0.1 µM, with: ATP at Km |  | inhibition | 31.3% |
| CN1CC[C@@H](COc2cnc(C#N)cc2-c2ccn3nc(NC(=O)C4CC4)cc3c2)C1 | MAPK14 | enzyme activity, inhibitor |  | 1 µM |  | inhibition | 0% |
| Nc1nc(Nc2ccccc2)sc1C(=O)c1ccccc1 | MAPK14 | enzyme activity, inhibitor |  | 10 µM |  | remaining activity | 14% |
| COc1ccc(NC(=O)Nc2ccc3c(c2)C(=O)N(C(C)CO)CC(C)C(CN(C)Cc2ccc4c(c2)OCO4)O3)cc1 (stereo not shown) | MAPK14 | binding, competition with immobilised ligand |  | 10 µM |  | remaining binding | 93% |
| Nc1ncc2c(n1)-c1c([nH]c3ccc(C4=CCOCC4)cc13)CCC2 | MAPK14 | binding, competition with immobilised ligand |  | 1 µM |  | remaining binding | 100% |
| C=CC(=O)N1CCCC(n2c(=O)c3ncccc3n(Cc3ccc(Oc4ccccc4)cc3)c2=O)C1 (stereo not shown) | MAPK14 | cell-free assay, competition with immobilised ligand |  | 1 µM |  | remaining binding | 95% |
| C=CC(=O)Nc1cccc(-c2cnc3[nH]cc(C(=O)NC(C)(C)C)c3n2)c1 | MAPK14 | enzyme activity, inhibitor |  | 0.1 µM |  | inhibition | 5% |
| CN(C)c1ccc(-n2cc(COC(=O)[C@]3(C)C=C(C(=O)OC(C)(C)C)C(=O)CC3)nn2)cc1 | Mitogen-activated protein kinase 14, with MKK6 (MAPK14, Homo sapiens, UniProt Q16539) | protein-protein interaction, NanoBiT, item: MKK6-p38α binding | HEK293T | 10 µM | reference: DMSO control | luminescence relative to control | 0.646 |
| O=C=[N][Ru-4]123([n]4c5ccc(O)cc5c5c6c(c7cc(F)c[n+]1c7c54)C(=O)NC6=O)[S+]1CC[S+]2CC[S+]3CC1 (stereo not shown) | Mitogen-activated protein kinase 14 (MAPK14, Homo sapiens, UniProt Q16539, T106M) | enzyme activity |  | 100 nM, human enzyme, with: 10 µM ATP | reference: untreated | remaining activity | 106% |
| C#CCOC(=O)[C@]1(C)C=C(C(=O)OC(C)(C)C)C(=O)CC1 | MAPK14 | kinase activity, Kinase-Glo luminescence |  | concentration not given |  | normalized luminescence | -0.137 and -0.0083 and -0.029 |
| NC(=O)C[C@H]1CCc2sc3ncnc(O[C@H]4CC[C@H](N5CCOCC5)CC4)c3c21 | MAPK14 | enzyme activity, inhibitor |  | 10 µM |  | inhibition | 0% |
| Cc1cccc(O[C@H]2CCC[C@@H](C(C)CNCc3ccncc3)C2)c1 (relative stereo) | MAPK14 | kinase activity, kinome panel screening |  | 10 µM |  | inhibition | -5% |
| COCC12C(=O)NC3C4(C(OC)CC1O)C1CC5(O)C(OC)C(O)C(OC(C)=O)(C1C5OC(=O)c1ccccc1)C3(O)C(OC)C24 (stereo not shown) | MAPK14 | kinase activity, inhibitor, ProQinase kinase profiling |  | 25 µM | reference: control | remaining activity | 87% and 100% |
| Cc1cccc(-c2ccc3nc(NC(=O)C4CCOCC4)nn3c2)c1 | MAPK14 | enzyme activity, Dundee kinase panel |  | 10 µM |  | remaining activity | 95% |
| CNC(=O)C1CCN(c2cc(C)c(F)cc2NC(=O)c2ccc(-c3cc(O)ccc3C)c(C)c2)CC1 | MAPK14 | binding, competition with immobilised ligand |  | 1 µM |  | remaining binding | 95% |
| CN1CCN(Cc2ccc(-c3ccc(CO[C@H]4CCC[C@@H]4NC(=O)c4cc(-c5cnn(C)c5)cnc4N)cc3)cc2)CC1 | MAPK14 | enzyme activity, inhibitor |  | 0.1 µM |  | inhibition | 3% and 10% |
| Cc1cnc2nc1Nc1cccc(c1)COC/C=C/COCc1cc(ccc1OCCN1CCOCC1)N2 | MAPK14 | cell-free assay |  | 0.1 µM |  | remaining signal | 89% |
| COc1ccc(C(=O)/C=C/c2ccccc2-c2c[nH]c3ccc(C#N)cc23)c(O)c1 | MAPK14 | enzyme activity, inhibitor |  | 20 µM |  | inhibition | 4% |

Repeated from above:
| Structure (SMILES) | target | test | system | conditions | how to read | quantity | result |
| --- | --- | --- | --- | --- | --- | --- | --- |
| COC(=O)[C@@]1(Cc2ccccc2)C=C(C(=O)OC(C)(C)C)C(=O)CC1 | Mitogen-activated protein kinase 14 (MAPK14, Homo sapiens, UniProt Q16539, C119V) | peptide binding, fluorescence polarization |  | 1000 µM |  | fraction bound | 0.00215 |
